Measured values from different studies.
Lines come from different studies, so protocols differ. Several values in a cell are separate wells, animals, samples, runs or records.

Structure (SMILES) = CCN(CC)CC(=O)Nc1cccc(-n2cc(-c3ccc4ccc(-c5cn(-c6cccc(NC(=O)CN(CC)CC)c6)nn5)cc4c3)nn2)c1; tested on = RCC4; assay = PCR angiogenesis array, item: FGF2; conditions = 5 x IC50, 2 h, normoxia; how to read = reference: untreated; measurement = fold regulation; value = 1.19
Structure (SMILES) = Cc1ncsc1-c1ccc(C(C)NC(=O)C2CC(O)CN2C(=O)C(NC(=O)CCCCCCCCCCN2CCCC(Nc3ncc(Cl)c(Nc4ccccc4S(=O)(=O)C(C)C)n3)C2)C(C)(C)C)cc1 (stereo not shown); tested on = 22Rv1; assay = RNA-seq, item: PLXNC1 mRNA; conditions = concentration not given; how to read = reference: DMSO; measurement = log2 fold change; value = -3.12
Structure (SMILES) = C=CCc1c(O)cc2c(c1O)C(=O)CC(c1ccc(O)cc1)O2 (stereo not shown); tested on = HeLa; assay = cell growth or viability, MTT; conditions = 1.563 µM, 48 h; measurement = inhibition; value = 2.1%
Structure (SMILES) = N#Cc1cccc(-c2ccc([C@H]3[C@@H](F)[C@@H](F)C[C@@H](F)[C@H]3F)cc2)c1; assay = liver microsome stability; system = mouse liver microsomes; conditions = 1 µM; measurement = hepatic clearance; value = 20 mL/min/kg
Structure (SMILES) = CCCCNc1ncc2c(/C=C/C(=O)N3CCC(OC)CC3)nn(Cc3cccc(C(F)(F)F)c3)c2n1; tested on = FLO-1; assay = cell growth or viability, resazurin; conditions = 5 days; measurement = EC50; value = > 30 µM
Structure (SMILES) = CNC(=O)c1ccc(C2CCCCC2)cc1; assay = hepatocyte stability; system = cryopreserved human hepatocytes; conditions = 1 µM; measurement = hepatic clearance; value = 19 mL/min/kg
Structure (SMILES) = Cc1c(Cl)cccc1Nc1ccccc1C(=O)[Se]CC(=O)Nc1cccc(C(F)(F)F)c1; tested on = NCI60 NSCLC subpanel mean; assay = cell growth; measurement = TGI; value = 3.11 µM
Structure (SMILES) = CNS(=O)(=O)Nc1nccc(Cc2c(C)c3ccc(Oc4ncccc4F)cc3oc2=O)c1F; tested on = NCI-H1650; assay = cell viability; conditions = 7 days; measurement = IC50; value = > 1 µM
Structure (SMILES) = C[C@@H]1CC[C@@H]([C@@](O)(CNCc2ccccc2F)COCc2ccccc2)[C@H](OCc2ccccc2)C1; tested on = A2780; assay = cell growth or viability, MTT; conditions = 30 µM, 72 h; measurement = inhibition; value = 99.4%
Structure (SMILES) = O=S(=O)(N[C@H]1CCO[C@@H](C2c3ccccc3CCc3ccccc32)C1)c1ccc(OC(F)(F)F)cc1; tested on = D425; assay = CellTiter; conditions = concentration not given, 72 h; measurement = cell proliferation; value = decreased
Structure (SMILES) = Cc1cc(Cl)cc(-c2ccnc3cc(CN4C(=O)C5C(C4=O)C5(C)C)sc23)c1C[C@@H]1CNCCO1 (stereo partly shown); tested on = CHP-212 resistant cells (pooled); assay = PI flow cytometry; conditions = 0.3 µM, 24 h; measurement = cells in G1 phase; value = 72.9% and 69.3% and 75.9%
Structure (SMILES) = CN1CCCNC(=O)c2cccc(c2)C(=O)NCCCN(C)CCCNc2cccc3c2C(=O)c2cccc(c2C3=O)NCCC1; tested on = SAS; assay = RNA-seq, item: FAM13A-AS1 mRNA; conditions = 1 µM, 6 h; how to read = reference: untreated cells; measurement = log2 fold change; value = 3.25
Structure (SMILES) = CC(=O)N[C@@H](CO)C(=O)N[C@@H](Cc1ccccc1)C(=O)N[C@@H](C)C(=O)N[C@@H](CC(=O)O)C(=O)COC(=O)c1c(C)cccc1C; tested on = THP-1 cells, LPS-primed; assay = pyroptosis, LDH release; conditions = 25 µM, LPS 1 µg/mL, 4 h, together with: nigericin 5 µM, 2 h; measurement = cell lysis; value = 88.5%
Structure (SMILES) = CC(C)c1ccc(N(C)c2ccc3c(c2)OCC[C@H]3CNc2cnccc2C(=O)O)cc1; tested on = NCI-H1437; assay = cell growth or viability, ATP luminescence; conditions = 7 days; measurement = IC50; value = 0.0131 µM
Structure (SMILES) = CC12CCCC(NC(=O)c3ccc(Br)cc3)(C1)C1CC(C)(C)C1CC2 (stereo not shown); tested on = HT-29; assay = cell growth or viability, CCK-8; conditions = 300 µM; measurement = inhibition; value = 66.3%
Structure (SMILES) = C=CC(=O)N1CCCC(n2c(=O)c3ncccc3n(Cc3ccc(Oc4ccccc4)cc3)c2=O)C1 (stereo not shown); tested on = OCI-LY19; assay = annexin V/PI flow cytometry; conditions = 100 nM, 72 h, Q4 quadrant; measurement = viable cells; value = 83.7%
Structure (SMILES) = CC12CCCC(NS(=O)(=O)c3ccc(CCN)cc3)(C1)C1CC(C)(C)C1CC2 (stereo not shown); tested on = HT-29; assay = cell growth or viability, CCK-8; conditions = 50 µM; measurement = inhibition; value = 98.7%
Structure (SMILES) = C=CC(=O)N1[C@H](c2ccc3c(c2)OCO3)c2[nH]c3ccccc3c2C[C@@H]1C(=O)NC; tested on = rat DRG neurons; conditions = 1.111 µM, 48 h, together with: vincristine 40 nM; measurement = mean neuron degeneration; value = 25.5%
Structure (SMILES) = CCN(C(=O)c1cc(F)ccc1Oc1nncnc1N1CCC2(C1)CN([C@H](CCCN(C)CCOC)C(C)C)C2)C(C)C; tested on = A2780; assay = cell growth or viability; conditions = 7 days; measurement = GI50; value = > 10 µM

For quick reference, copied from above:
Structure (SMILES) = C=CC(=O)N1[C@H](c2ccc3c(c2)OCO3)c2[nH]c3ccccc3c2C[C@@H]1C(=O)NC; tested on = rat DRG neurons; conditions = 1.111 µM, 48 h, together with: vincristine 40 nM; measurement = mean neuron degeneration; value = 25.5%
Structure (SMILES) = CCN(C(=O)c1cc(F)ccc1Oc1nncnc1N1CCC2(C1)CN([C@H](CCCN(C)CCOC)C(C)C)C2)C(C)C; tested on = A2780; assay = cell growth or viability; conditions = 7 days; measurement = GI50; value = > 10 µM
